Published values pooled from the literature.
Parts stem from different laboratories: compare values within a part only.
Sequence of UniProt Q13557 (whole entry, looked up): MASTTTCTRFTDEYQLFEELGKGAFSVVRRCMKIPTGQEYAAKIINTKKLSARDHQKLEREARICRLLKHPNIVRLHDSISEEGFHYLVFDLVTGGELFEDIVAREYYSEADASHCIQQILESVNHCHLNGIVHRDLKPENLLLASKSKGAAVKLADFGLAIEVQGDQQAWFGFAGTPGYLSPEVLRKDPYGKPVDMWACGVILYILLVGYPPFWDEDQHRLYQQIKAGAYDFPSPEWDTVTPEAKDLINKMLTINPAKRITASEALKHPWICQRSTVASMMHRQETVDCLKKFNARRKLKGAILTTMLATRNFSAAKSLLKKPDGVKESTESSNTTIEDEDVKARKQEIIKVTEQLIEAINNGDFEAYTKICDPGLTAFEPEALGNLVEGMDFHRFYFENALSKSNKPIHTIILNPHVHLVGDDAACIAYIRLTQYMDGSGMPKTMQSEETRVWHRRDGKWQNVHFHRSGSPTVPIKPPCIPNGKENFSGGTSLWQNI
Sequence of UniProt Q14680 (whole entry, looked up): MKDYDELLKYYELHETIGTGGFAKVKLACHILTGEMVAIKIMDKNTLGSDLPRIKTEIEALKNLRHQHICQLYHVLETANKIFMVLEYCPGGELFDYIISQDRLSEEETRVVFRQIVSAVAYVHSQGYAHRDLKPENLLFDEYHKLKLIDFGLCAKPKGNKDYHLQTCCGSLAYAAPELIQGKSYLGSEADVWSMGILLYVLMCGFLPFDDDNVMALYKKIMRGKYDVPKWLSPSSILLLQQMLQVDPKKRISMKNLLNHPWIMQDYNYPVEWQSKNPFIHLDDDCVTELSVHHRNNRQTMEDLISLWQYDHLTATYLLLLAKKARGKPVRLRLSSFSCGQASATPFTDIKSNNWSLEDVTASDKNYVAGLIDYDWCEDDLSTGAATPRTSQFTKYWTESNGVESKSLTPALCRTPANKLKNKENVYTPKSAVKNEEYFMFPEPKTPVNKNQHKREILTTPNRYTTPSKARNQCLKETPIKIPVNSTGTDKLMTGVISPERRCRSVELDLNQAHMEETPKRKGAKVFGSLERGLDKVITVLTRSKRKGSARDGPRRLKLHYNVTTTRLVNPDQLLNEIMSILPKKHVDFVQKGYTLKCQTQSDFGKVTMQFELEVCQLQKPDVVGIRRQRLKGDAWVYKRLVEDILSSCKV
Sequence of UniProt Q15139 (whole entry, looked up): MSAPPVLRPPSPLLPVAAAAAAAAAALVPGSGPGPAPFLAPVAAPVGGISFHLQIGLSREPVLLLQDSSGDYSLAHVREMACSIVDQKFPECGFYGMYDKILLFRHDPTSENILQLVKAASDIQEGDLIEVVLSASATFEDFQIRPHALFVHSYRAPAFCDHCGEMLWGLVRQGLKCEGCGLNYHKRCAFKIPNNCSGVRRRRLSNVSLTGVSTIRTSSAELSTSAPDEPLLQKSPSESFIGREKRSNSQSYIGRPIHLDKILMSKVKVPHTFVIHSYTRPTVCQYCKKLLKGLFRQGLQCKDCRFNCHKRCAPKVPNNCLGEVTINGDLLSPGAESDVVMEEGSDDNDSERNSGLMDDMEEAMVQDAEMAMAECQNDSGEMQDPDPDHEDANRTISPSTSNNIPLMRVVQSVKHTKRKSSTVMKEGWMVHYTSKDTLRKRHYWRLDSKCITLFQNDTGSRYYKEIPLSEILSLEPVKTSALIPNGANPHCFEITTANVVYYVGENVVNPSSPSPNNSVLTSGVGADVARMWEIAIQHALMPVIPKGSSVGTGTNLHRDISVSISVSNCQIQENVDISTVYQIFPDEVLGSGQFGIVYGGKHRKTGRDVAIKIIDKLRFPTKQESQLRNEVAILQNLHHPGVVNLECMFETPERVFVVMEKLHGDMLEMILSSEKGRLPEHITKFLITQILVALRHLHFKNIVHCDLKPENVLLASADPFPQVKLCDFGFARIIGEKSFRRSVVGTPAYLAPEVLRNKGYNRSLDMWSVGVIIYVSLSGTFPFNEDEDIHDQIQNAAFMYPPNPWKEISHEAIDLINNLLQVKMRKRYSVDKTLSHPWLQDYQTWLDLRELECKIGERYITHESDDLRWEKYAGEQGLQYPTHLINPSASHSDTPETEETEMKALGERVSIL
Sequence of UniProt Q8TD19 (whole entry, looked up): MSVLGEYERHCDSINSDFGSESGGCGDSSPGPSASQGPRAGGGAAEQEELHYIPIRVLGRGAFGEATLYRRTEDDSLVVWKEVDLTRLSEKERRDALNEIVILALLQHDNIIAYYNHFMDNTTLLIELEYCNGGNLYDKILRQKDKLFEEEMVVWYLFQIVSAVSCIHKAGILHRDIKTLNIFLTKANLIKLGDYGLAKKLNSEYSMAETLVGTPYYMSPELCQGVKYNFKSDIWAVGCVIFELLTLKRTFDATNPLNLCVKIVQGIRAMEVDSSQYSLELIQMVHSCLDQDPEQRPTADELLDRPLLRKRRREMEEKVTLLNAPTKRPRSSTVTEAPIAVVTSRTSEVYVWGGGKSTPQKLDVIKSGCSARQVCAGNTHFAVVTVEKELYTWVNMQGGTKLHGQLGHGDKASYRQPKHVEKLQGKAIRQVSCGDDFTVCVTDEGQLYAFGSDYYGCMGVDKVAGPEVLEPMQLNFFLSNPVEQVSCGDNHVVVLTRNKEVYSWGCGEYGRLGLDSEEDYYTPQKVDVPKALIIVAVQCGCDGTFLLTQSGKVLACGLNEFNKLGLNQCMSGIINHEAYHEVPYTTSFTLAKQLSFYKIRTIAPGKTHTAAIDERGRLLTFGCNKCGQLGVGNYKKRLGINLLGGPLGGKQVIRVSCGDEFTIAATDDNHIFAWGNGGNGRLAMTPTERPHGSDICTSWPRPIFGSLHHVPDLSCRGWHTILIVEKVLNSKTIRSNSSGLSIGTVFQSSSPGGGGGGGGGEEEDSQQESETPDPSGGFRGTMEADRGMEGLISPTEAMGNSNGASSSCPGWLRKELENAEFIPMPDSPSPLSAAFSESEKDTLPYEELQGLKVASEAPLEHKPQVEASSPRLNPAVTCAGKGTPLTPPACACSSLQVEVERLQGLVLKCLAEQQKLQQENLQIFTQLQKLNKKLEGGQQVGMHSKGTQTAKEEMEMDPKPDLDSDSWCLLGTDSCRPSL
Sequence of UniProt Q9H2G2 (whole entry, looked up): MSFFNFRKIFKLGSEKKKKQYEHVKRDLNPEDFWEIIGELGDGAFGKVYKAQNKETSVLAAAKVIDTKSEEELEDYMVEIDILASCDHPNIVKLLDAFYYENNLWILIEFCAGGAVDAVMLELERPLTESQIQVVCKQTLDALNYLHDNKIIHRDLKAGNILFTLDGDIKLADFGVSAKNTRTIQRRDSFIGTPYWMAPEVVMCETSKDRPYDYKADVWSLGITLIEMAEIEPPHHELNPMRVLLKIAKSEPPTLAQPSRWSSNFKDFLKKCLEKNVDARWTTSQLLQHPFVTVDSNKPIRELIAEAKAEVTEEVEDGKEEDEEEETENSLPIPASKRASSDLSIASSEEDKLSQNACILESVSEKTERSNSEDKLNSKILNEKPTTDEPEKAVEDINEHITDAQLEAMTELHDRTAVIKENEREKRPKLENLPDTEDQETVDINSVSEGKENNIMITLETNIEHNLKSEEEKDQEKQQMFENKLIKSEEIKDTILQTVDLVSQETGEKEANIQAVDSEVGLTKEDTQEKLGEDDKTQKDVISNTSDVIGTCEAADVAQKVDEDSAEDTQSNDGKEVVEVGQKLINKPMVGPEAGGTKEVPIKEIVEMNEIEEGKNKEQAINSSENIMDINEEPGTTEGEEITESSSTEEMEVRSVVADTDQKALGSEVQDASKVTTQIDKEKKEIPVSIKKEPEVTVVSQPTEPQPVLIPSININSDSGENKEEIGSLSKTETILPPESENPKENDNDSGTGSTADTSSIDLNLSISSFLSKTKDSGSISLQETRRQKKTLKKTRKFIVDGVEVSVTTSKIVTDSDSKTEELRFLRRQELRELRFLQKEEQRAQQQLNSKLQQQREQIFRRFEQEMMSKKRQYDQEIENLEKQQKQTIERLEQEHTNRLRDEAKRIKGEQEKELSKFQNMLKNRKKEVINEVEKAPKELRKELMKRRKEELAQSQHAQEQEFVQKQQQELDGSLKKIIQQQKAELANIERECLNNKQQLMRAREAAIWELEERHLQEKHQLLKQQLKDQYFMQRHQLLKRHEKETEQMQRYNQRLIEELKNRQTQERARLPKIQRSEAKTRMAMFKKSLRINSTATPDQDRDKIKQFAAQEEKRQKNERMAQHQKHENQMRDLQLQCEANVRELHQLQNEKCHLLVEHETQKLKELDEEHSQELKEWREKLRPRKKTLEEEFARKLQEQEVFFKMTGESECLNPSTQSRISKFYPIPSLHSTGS
Sequence of UniProt Q9UQB9 (whole entry, looked up): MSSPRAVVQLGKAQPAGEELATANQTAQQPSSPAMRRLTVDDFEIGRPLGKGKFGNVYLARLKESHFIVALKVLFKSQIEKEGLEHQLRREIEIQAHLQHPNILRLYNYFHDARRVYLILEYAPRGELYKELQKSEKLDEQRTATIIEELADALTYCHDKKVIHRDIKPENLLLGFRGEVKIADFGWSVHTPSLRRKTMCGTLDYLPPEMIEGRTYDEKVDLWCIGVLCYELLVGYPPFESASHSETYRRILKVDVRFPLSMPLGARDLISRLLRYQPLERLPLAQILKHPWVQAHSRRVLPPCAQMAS

Set 1 — tested at: 0.1 µM
Structure (SMILES): Cc1cc(C)c(-n2ccn3nc(-c4cccnc4)cc23)cc1NC(=O)c1cc(C#N)cc(S(F)(F)(F)(F)F)c1
| target | read-out | technique | remaining binding |
| --- | --- | --- | --- |
| SIK1 (Homo sapiens, UniProt P57059) |  | competition binding | 86.3% |
| MAP4K2 (Homo sapiens, UniProt Q12851) | cell-free assay | competition with immobilised ligand | 53.1% |
| EPHA4 (Homo sapiens, UniProt P54764) | cell-free assay | competition with immobilised ligand | 100% |
| EPHA8 (Homo sapiens, UniProt P29322) | cell-free assay | competition with immobilised ligand | 83.5% |
| PHKG2 (Homo sapiens, UniProt P15735) | cell-free assay | competition with immobilised ligand | 78.3% |
| PRKACA (Homo sapiens, UniProt P17612) | cell-free assay | competition with immobilised ligand | 95.6% |
| WEE1 (Homo sapiens, UniProt P30291) | cell-free assay | competition with immobilised ligand | 100% |
| MAP4K1 (Homo sapiens, UniProt Q92918) | cell-free assay | competition with immobilised ligand | 100% |
| CASK (Homo sapiens, UniProt O14936) | cell-free assay | competition with immobilised ligand | 86.6% |
| ULK1 (Homo sapiens, UniProt O75385) | cell-free assay | competition with immobilised ligand | 100% |
| STK38 (Homo sapiens, UniProt Q15208) | cell-free assay | competition with immobilised ligand | 80.4% |
| SRPK3 (Homo sapiens, UniProt Q9UPE1) | cell-free assay | competition with immobilised ligand | 100% |
| BRAF (Homo sapiens, UniProt P15056, V600E) | cell-free assay | competition with immobilised ligand | 100% |
| FER (Homo sapiens, UniProt P16591) | cell-free assay | competition with immobilised ligand | 100% |
| Tyrosine-protein kinase ABL1, non-phosphorylated (ABL1, Homo sapiens, UniProt P00519, F317L) | cell-free assay | competition with immobilised ligand | 26.6% |
| MELK (Homo sapiens, UniProt Q14680) | cell-free assay | competition with immobilised ligand | 100% |
| IRAK3 (Homo sapiens, UniProt Q9Y616) | cell-free assay | competition with immobilised ligand | 75.2% |
| CAMK2D (Homo sapiens, UniProt Q13557) | cell-free assay | competition with immobilised ligand | 89.1% |
| MAP2K3 (Homo sapiens, UniProt P46734) | cell-free assay | competition with immobilised ligand | 81.9% |
| MAPK6 (Homo sapiens, UniProt Q16659) | cell-free assay | competition with immobilised ligand | 85.8% |
| Ribosomal protein S6 kinase alpha-5, C-terminal kinase domain (RPS6KA5, Homo sapiens, UniProt O75582) | cell-free assay | competition with immobilised ligand | 100% |
| Aurora kinase C (AURKC, Homo sapiens, UniProt Q9UQB9) | cell-free assay | competition with immobilised ligand | 100% |
| STK17B (Homo sapiens, UniProt O94768) | cell-free assay | competition with immobilised ligand | 91.4% |
| Non-receptor tyrosine-protein kinase TYK2, JH2 (TYK2, Homo sapiens, UniProt P29597) | cell-free assay | competition with immobilised ligand | 87.3% |

Set 2 — sample: hydrocarbon/water
| SMILES | logD |
| --- | --- |
| CC(C)CC1NC(=O)CN(CC2CCOCC2)C(=O)C2CCCN2C(=O)C(CC(C)C)NC(=O)C(C)N(C)C(=O)C(CC(C)C)NC(=O)CN(Cc2ccc3c(c2)OCO3)C(=O)C2CCCN2C(=O)C(Cc2ccccc2)NC(=O)C(C)N(C)C1=O (stereo not drawn) | 2.59 |
| CCCCCN1CC(=O)N[C@@H](Cc2ccccc2)C(=O)N2CCC[C@@H]2C(=O)N(C)[C@@H](CC(C)C)C(=O)N[C@@H](C)C(=O)N(Cc2ccc3c(c2)OCO3)CC(=O)N[C@@H](CC(C)C)C(=O)N2CCC[C@@H]2C(=O)N(C)[C@@H](CC(C)C)C(=O)N[C@@H](C)C1=O | 3.06 |
| CC(C)C[C@@H]1NC(=O)[C@H](Cc2ccccc2)NC(=O)[C@H]2CCCN2C(=O)[C@H](CC(C)C)NC(=O)[C@H](CC(C)C)NC(=O)[C@@H](CC(C)C)NC1=O | 1.45 |
| CC(C)C[C@@H]1NC(=O)[C@H](Cc2ccc(O)cc2)N(C)C(=O)[C@H]2CCCN2C(=O)[C@H](CC(C)C)NC(=O)[C@H](C)N(C)C(=O)[C@@H](C)N(C)C1=O | -0.794 |
| CC[C@@H]1C(=O)N(C)[C@@H](CC)C(=O)N[C@@H](CC(C)C)C(=O)N2CCC[C@@H]2C(=O)N(C)[C@@H](Cc2ccccc2)C(=O)N[C@@H](CC(C)C)C(=O)N1C | 2.11 |
| CCC[C@@H]1NC(=O)CN(CCC)C(=O)[C@H](CC(C)C)NC(=O)Cn2cc(nn2)CN(C)C(=O)[C@H](CC(C)C)NC(=O)[C@H](C)N(C)C(=O)[C@H](CC2CCCCC2)NC(=O)[C@H](C)N(C)C(=O)[C@H]2CCCN2C1=O | 0.581 |
| CC(C)C[C@@H]1NC(=O)CN(Cc2ccc3c(c2)OCO3)C(=O)[C@H](C)NC(=O)[C@H](CC(C)C)N(C)C(=O)[C@H]2CCCN2C(=O)[C@H](C)NC(=O)CN(CC2CCCCC2)C(=O)[C@H](C)NC(=O)[C@H](CC(C)C)N(C)C(=O)[C@H]2CCCN2C1=O | 2.49 |
| CC[C@H]1NC(=O)[C@H](CC(C)C)NC(=O)[C@H](Cc2ccccc2)NC(=O)[C@H]2CCCN2C(=O)[C@H](CC2CCCCC2)NC(=O)[C@H](CC2CCCCC2)NC1=O | 2.54 |
| CCN1CC(=O)N[C@@H](CC2CCCCC2)C(=O)N(C)[C@@H](C)C(=O)N[C@@H](CC(C)C)C(=O)N(C)Cc2cn(nn2)CC(=O)N[C@@H](CC(C)C)C(=O)N(C)[C@@H](C)C(=O)N[C@@H](CC(C)C)C(=O)N2CCC[C@@H]2C1=O | 0.597 |
| CCN1CC(=O)N[C@@H](CC(C)C)C(=O)N2CCC[C@@H]2C(=O)N(C)[C@@H](CC(C)C)C(=O)N[C@@H](C)C(=O)N(CC2CCCCC2)CC(=O)N[C@@H](C)C(=O)N2CCC[C@@H]2C(=O)N(C)[C@@H](CC(C)C)C(=O)N[C@@H](C)C1=O | 1.75 |

Set 3 — read-out: enzyme activity; action: inhibitor; tested at: 10 µM
Target: Calcium/calmodulin-dependent protein kinase type II subunit alpha (CAMK2A, Homo sapiens, UniProt Q9UQM7)
Sequence of UniProt Q9UQM7 (whole entry, looked up): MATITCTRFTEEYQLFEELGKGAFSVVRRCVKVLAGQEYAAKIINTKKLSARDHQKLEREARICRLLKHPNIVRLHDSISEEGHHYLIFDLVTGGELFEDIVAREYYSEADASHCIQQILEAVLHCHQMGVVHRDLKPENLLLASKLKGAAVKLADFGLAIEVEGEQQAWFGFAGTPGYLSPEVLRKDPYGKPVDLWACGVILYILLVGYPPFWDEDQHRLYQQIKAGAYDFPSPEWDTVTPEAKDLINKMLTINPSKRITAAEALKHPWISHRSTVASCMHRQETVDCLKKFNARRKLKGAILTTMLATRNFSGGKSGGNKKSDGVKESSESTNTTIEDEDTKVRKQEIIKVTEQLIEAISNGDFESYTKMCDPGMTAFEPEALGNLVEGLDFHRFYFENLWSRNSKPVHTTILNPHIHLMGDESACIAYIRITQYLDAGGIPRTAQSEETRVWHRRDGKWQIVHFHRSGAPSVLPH
| Structure (SMILES) | inhibition [%] |
| --- | --- |
| C[C@@H](O[C@H]1OCCN(Cc2n[nH]c(=O)[nH]2)[C@H]1c1ccc(F)cc1)c1cc(C(F)(F)F)cc(C(F)(F)F)c1 | -2 |
| O=C(O)c1ccccc1OP(=O)(O)O | 1 |
| N#Cc1ccnc(N2C(=O)CC[C@H]2C(=O)N(c2cncc(F)c2)[C@H](C(=O)NC2CC(F)(F)C2)c2ccccc2Cl)c1 | -2 |
| O=C(O)c1ccoc1 | -5 |
| C/C=C(/C)C(=O)Oc1c(OC)c(OC)cc2c1-c1c(cc(OC)c(OC)c1OC)C[C@](C)(O)[C@@H](C)C2 | -10 |
| O=C(NC1CCN(CCCCC2(C(=O)NCC(F)(F)F)c3ccccc3-c3ccccc32)CC1)c1ccccc1-c1ccc(C(F)(F)F)cc1 | -17 |
| CC(C)=CCC[C@](C)(O[C@@H]1O[C@H](CO)[C@@H](O)[C@H](O)[C@H]1O)[C@H]1CC[C@]2(C)[C@@H]1[C@H](O)C[C@@H]1[C@@]3(C)CC[C@H](O)C(C)(C)[C@@H]3[C@@H](O)C[C@]12C | -13 |
| O=C(O)CCCCCCCCCCCC(=O)O | 10 |
| Cc1c(Cl)cccc1Nc1ccccc1C(=O)O | -3 |

Set 4 — read-out: enzyme activity; action: inhibitor; tested at: 0.5 µM; relative to: control
Compound: Nc1nc(Nc2ccc(S(N)(=O)=O)cc2)nn1C(=O)c1c(F)cccc1F
| target | remaining activity [%] |
| --- | --- |
| Cyclin-dependent kinase 2, with cyclin A (CDK2, Homo sapiens, UniProt P24941) | 2.21 |
| CDK7 (Homo sapiens, UniProt P50613) | 81.1 |
| MAP3K8 (Homo sapiens, UniProt P41279) | 94.4 |
| MAP3K2 (Homo sapiens, UniProt Q9Y2U5) | 11.3 |
| RET (Homo sapiens, UniProt P07949) | 54.1 |
| ROCK2 (Homo sapiens, UniProt O75116) | 18.6 |
| EGFR (Homo sapiens, UniProt P00533) | 97 |
| CSNK2A2 (Homo sapiens, UniProt P19784) | 97.5 |
| PKN2 (Homo sapiens, UniProt Q16513) | 85.6 |
| DMPK (Homo sapiens, UniProt Q09013) | 93.2 |
| NEK9 (Homo sapiens, UniProt Q8TD19) | 82.2 |
| NTRK3 (Homo sapiens, UniProt Q16288) | 37.6 |
| DYRK4 (Homo sapiens, UniProt Q9NR20) | 105 |
| HIPK3 (Homo sapiens, UniProt Q9H422) | 91.2 |
| ROS1 (Homo sapiens, UniProt P08922) | 39.5 |
| CAMK1G (Homo sapiens, UniProt Q96NX5) | 101 |
| GRK5 (Homo sapiens, UniProt P34947) | 85.9 |
| PRKD1 (Homo sapiens, UniProt Q15139) | 66.5 |
| SLK (Homo sapiens, UniProt Q9H2G2) | 19.1 |
| MAPK10 (Homo sapiens, UniProt P53779) | 100 |
